Measured values gathered from unrelated publications.
Compare with care: the assays were run in different laboratories. ± marks the error that the study gave. Values after ≈ are worked out from the molar mass of the structure shown.

Structure (SMILES) | target | test | test system | setting | scale | quantity | value
CC(C)C(N)C(=O)NC(C(=O)OCC(=O)C1(O)CCC2C3CCC4=CC(=O)C=CC4(C)C3C(O)CC21C)C(C)C (centres unmarked) | peptide transporters |  | MDCK-MDR1 | 100 µM, pH 7.4, 37 °C, added: [3H]-GlySar | reference: untreated | [3H]-GlySar uptake | 40%
CC(C)C[C@@H]1NC(=O)[C@H](Cc2ccc(O)cc2)NC(=O)[C@H](CC(N)=O)NC(=O)[C@H](CO)NC(=O)[C@@H](NC(=O)[C@@H]2CCCN2C(=O)[C@H](CC(N)=O)NC(=O)[C@@H](N)Cc2ccc(O)cc2)CSC1=O | AgrC-II | GFP reporter | Staphylococcus epidermidis, agr group-II reporter | 10 µM |  | inhibition | ~75%
Cc1ncsc1-c1ccc(CNC(=O)[C@@H]2C[C@@H](O)CN2C(=O)[C@@H](NC(=O)CN2CCN(C3CN(CCNC(=O)c4cc5c(cc4CS(C)(=O)=O)-c4cn(C)c(=O)c6[nH]cc(c46)CN5c4ncc(F)cc4F)C3)CC2)C(C)(C)C)cc1 | Spodoptera frugiperda BRD3 | degrader, targeted LC-MS | Sf9 | 1 µM, 24 h |  | degradation | 70%
CCCCCCCCC(=O)NCc1ccc(O)c(OC)c1 | mouse mAb 1-G12 | antibody binding, indirect competitive ELISA |  | added: coating antigen 4-OVA |  | IC50 | 0.178 µg/mL (≈ 0.605 µM)
CC[C@@H]1CN2CCc3c([nH]c4cccc(OC)c34)[C@@H]2C[C@@H]1/C(=C\OC)C(=O)OC | anti-compound rabbit polyclonal IgG | antibody binding, competitive indirect ELISA |  | pH 7.4 |  | IC50 | 1.3 µg/mL (≈ 3.27 µM)
CC/C(=C\CC[C@H](C)C[C@@H](C)CC[C@H](O)[C@H](C)C(=O)CC(O)[C@H](C)[C@@H](C)OC(=O)C[C@@H](O)C1=C(C)C(=O)OC1=O)C(O)CC(=O)O (some centres unmarked) | PP1 (human) | enzyme activity | MCF7 | 20 µM, 4 h | reference: untreated | inhibition | 38%
CC(C)CS[C@H]1[C@H](O)[C@@H](N)[C@@H](O[C@H]2[C@H](O[C@@H]3O[C@H](CO)[C@@H](O[C@H]4O[C@@H](CN)[C@@H](O)[C@H](O)[C@H]4N)[C@H]3O)[C@@H](O)[C@H](N)C[C@@H]2N)O[C@@H]1CO | bacterial hybrid ribosome, human cytoplasmic A site | cell-free translation |  |  | reference: cytoplasmic hybrid over wild-type bacterial | selectivity ratio | 1610
CC(=O)N1c2ccc(-c3ccc(C(=O)NCCN4CC(N5CCN(CC(=O)N[C@H](C(=O)N6C[C@@H](O)C[C@H]6C(=O)NCc6ccc(-c7scnc7C)cc6)C(C)(C)C)CC5)C4)cc3)cc2[C@H](Nc2ccc(Cl)cc2)C[C@@H]1C | Spodoptera frugiperda BRD3 | degrader, targeted MS | Spodoptera frugiperda L5 larvae | injection, 0.1 nmol/mg | reference: DMSO | BRD3 peptide level increase | 20%
O=C(O)COc1ccc(Cl)cc1 | Torpedo CLC-0 Y512A C212S | chloride current, inhibitor, patch clamp |  | 100 mV, unit not given | reference: wild type | affinity increase | ~10
O=C(N[C@@H](Cn1ccnc1)c1ccc(F)cc1F)c1ccc(-c2nnc(-c3ccccc3)o2)cc1 | Leishmania infantum CYP51 |  |  | concentration not given |  | remaining activity | 58 ± 4.9%
CC[S+]([O-])C1C(CO)OC(OC2C(N)CC(N)C(O)C2OC2OC(CO)C(OC3OC(CN)C(O)C(O)C3N)C2O)C(N)C1O (mixture of isomers) | bacterial hybrid ribosome, human mitochondrial A site | cell-free translation |  |  | reference: mitochondrial hybrid over wild-type bacterial | selectivity ratio | 236
O=C(Oc1nsnc1N1CCOCC1)N1CCOCC1 | trypsin | enzyme activity, inhibitor, gel-based |  | up to 100 µM, added: denatured BSA substrate |  | inhibition | no inhibition
CC(C)C[C@H](NC(=O)[C@H](C)NC(=O)[C@H](CCCCN)NC(=O)[C@H](CCCNC(=N)N)NC(=O)[C@H](CCC(=O)O)NC(=O)[C@H](C)NC(=O)[C@H](CCC(=O)O)NC(=O)[C@H](CCCCN)NC(=O)[C@H](CCCCN)NC(=O)[C@H](CC(=O)O)NC(=O)[C@H](Cc1c[nH]cn1)NC(=O)[C@H](CC(=O)O)NC(=O)[C@H](C)NC(=O)[C@H](C)NC(=O)[C@H](CCC(=O)O)NC(=O)[C@H](CO)NC(=O)[C@H](CCCCN)NC(=O)[C@H](CC(C)C)NC(=O)[C@H](CCCNC(=N)N)NC(=O)[C@H](CCC(=O)O)NC(=O)[C@H](CC(C)C)NC(=O)[C@H](CCC(=O)O)NC(=O)[C@H](C)NC(=O)[C@H](CCC(=O)O)NC(=O)[C@H](CCC(=O)O)NC(=O)[C@H](Cc1c[nH]cn1)NC(=O)[C@H](CCCNC(=N)N)NC(=O)[C@H](CCC(=O)O)NC(=O)[C@H](CC(N)=O)NC(=O)[C@H](CCCCN)NC(=O)[C@H](CC(C)C)NC(=O)[C@H](CCCNC(=N)N)NC(=O)[C@H](CCC(N)=O)NC(=O)[C@H](CC(C)C)NC(=O)[C@H](CCC(=O)O)NC(=O)[C@H](C)NC(=O)[C@H](CC(=O)O)NC(=O)[C@H](C)NC(=O)[C@@H](NC(=O)[C@H](CC(C)C)NC(=O)[C@H](CCCCN)NC(=O)[C@H](CCC(=O)O)NC(=O)[C@@H](NC(=O)[C@H](CO)NC(=O)CN)C(C)C)[C@@H](C)O)C(=O)N[C@@H](CCC(=O)O)C(=O)N[C@@H](CC(=O)O)C(=O)N[C@@H](CCCCN)C(=O)N[C@@H](CC(C)C)C(=O)N[C@@H](C)C(=O)N[C@@H](CC(=O)O)C(=O)N[C@@H](Cc1ccc(O)cc1)C(=O)O | human K2 plasminogen complex | analytical ultracentrifugation |  | pH 7.4, 25 °C |  | molecular mass | 16400 ± 1000 Da
NC[C@@H]1O[C@H](O[C@H]2[C@@H](O)[C@H](O[C@@H]3[C@@H](O)[C@H](N)C[C@H](N)[C@H]3O[C@H]3O[C@H](CO)[C@@H](CCO)[C@H](O)[C@H]3N)O[C@@H]2CO)[C@H](N)[C@@H](O)[C@@H]1O | bacterial hybrid ribosome, human mitochondrial A site | cell-free translation |  |  | reference: mitochondrial hybrid over wild-type bacterial | selectivity ratio | 1030
NC(=O)[C@H](CO)NC(=O)[C@@H]1CCCN1C(=O)[C@H](Cc1ccc(O)cc1)NC(=O)CNC(=O)[C@H](Cc1ccccc1)NC(=O)[C@@H](CCCNC(=O)CBr)NC(=O)[C@@H](N)Cc1ccc(O)cc1 | mu and delta opioid receptors | binding, radioligand binding | CHO cells | added: [3H]DAMGO | reference: IC50 DOR over IC50 MOR | selectivity ratio | > 3000 fold
Cc1cc(Nc2cc(CN(C)C)cc(NC(=O)c3cccc(Nc4ccnc5ccccc45)c3)c2)nc(N)n1 | human DNA polymerase theta | inhibitor |  | 50 µM |  | inhibition | ~50%
CCO[C@H]1[C@H](O)[C@@H](N)[C@@H](O[C@H]2[C@H](O[C@@H]3O[C@H](CO)[C@@H](O[C@H]4O[C@@H](CN)[C@@H](O)[C@H](O)[C@H]4N)[C@H]3O)[C@@H](O)[C@H](N)C[C@@H]2N)O[C@@H]1CO | Mycobacterium smegmatis ribosome G1491C | translation, cell-free translation |  |  | reference: G1491C mutant over wild type | IC50 ratio | 3000
Nc1cc(Oc2ccc(-c3ccccc3)cc2)nn1S(=O)(=O)c1ccc(Oc2ccccc2)cc1 | dengue virus 2 protease S135A | ESI-TOF MS |  | 20 µM, 1 h, 25 °C | reference: DMSO control | protein mass shift | 0 Da
CCS(=O)(=O)[C@H]1[C@H](O)[C@@H](N)[C@@H](O[C@H]2[C@H](O[C@@H]3O[C@H](CO)[C@@H](O[C@H]4O[C@@H](CN)[C@@H](O)[C@H](O)[C@H]4N)[C@H]3O)[C@@H](O)[C@H](N)C[C@@H]2N)O[C@@H]1CO | bacterial hybrid ribosome, human mitochondrial A site | cell-free translation |  |  | reference: mitochondrial hybrid over wild-type bacterial | selectivity ratio | 24
CCCCCCCCCCCCCCCC(=O)NCCCC[C@H](NC(=O)[C@H](CCCNC(=N)N)NC(=O)[C@H](Cc1ccc(O)cc1)NC(=O)[C@H](CC(C)C)NC(=O)[C@H](CCCNC(=N)N)NC(=O)CNS(=O)(=O)c1ccc(N)cc1)C(N)=O | 70S ribosome (Escherichia coli) | binding, fluorescence quenching |  |  |  | Kd | ~0.14 nM
CC(C)S[C@H]1[C@H](O)[C@@H](N)[C@@H](O[C@H]2[C@H](O[C@@H]3O[C@H](CO)[C@@H](O[C@H]4O[C@@H](CN)[C@@H](O)[C@H](O)[C@H]4N)[C@H]3O)[C@@H](O)[C@H](N)C[C@@H]2N)O[C@@H]1CO | bacterial hybrid ribosome, human mitochondrial A site | cell-free translation |  |  | reference: mitochondrial hybrid over wild-type bacterial | selectivity ratio | 1210
COCC(C)N1CCn2cc(C(=O)NCc3ccc(F)cc3F)c(=O)c(O)c2C1=O (centres unmarked) | HIV-1 integrase wild type | viral replication | HOS, HIV-1 | single-round vector |  | EC50 | 3.6 ± 0.1 nM
CCCS[C@H]1[C@H](O)[C@@H](N)[C@@H](O[C@H]2[C@H](O[C@@H]3O[C@H](CO)[C@@H](O[C@H]4O[C@@H](CN)[C@@H](O)[C@H](O)[C@H]4N)[C@H]3O)[C@@H](O)[C@H](N)C[C@@H]2N)O[C@@H]1CO | bacterial hybrid ribosome, human cytoplasmic A site | cell-free translation |  |  | reference: cytoplasmic hybrid over wild-type bacterial | selectivity ratio | 1860
c1ccc(CCNC2CCCc3c2[nH]c2ccc(C4CCCCC4)cc32)cc1 (centres unmarked) | MurG, Staphylococcus aureus | inhibitor |  |  |  | lipid II synthesis | inhibited
CC[C@H](C)[C@H](NC(=O)[C@H](CCCNC(=N)N)NC(=O)[C@H](CCCNC(=N)N)NC(=O)[C@H](CC(C)C)NC(=O)[C@H](Cc1ccccc1)NC(=O)CNC(=O)CNC(=O)[C@@H](N)Cc1ccc(O)cc1)C(=O)N[C@@H](CCCNC(=N)N)C(=O)N1CCC[C@H]1C(=O)N[C@@H](CCCCN)C(=O)N[C@@H](CC(C)C)C(=O)N[C@@H](CCCCN)C(=O)N[C@@H](Cc1c[nH]c2ccccc12)C(=O)N[C@@H](CC(=O)O)C(=O)N[C@@H](CC(N)=O)C(=O)N[C@@H](CCC(N)=O)C(=O)O | Rana pipiens delta opioid receptor | agonist | HEK-293T |  |  | EC50 | 1700 nM
NC[C@@H]1O[C@H](O[C@H]2[C@@H](O)[C@H](O[C@@H]3[C@@H](O)[C@H](N)C[C@H](N)[C@H]3O[C@H]3O[C@H](CO)[C@@H](SCCF)[C@H](O)[C@H]3N)O[C@@H]2CO)[C@H](N)[C@@H](O)[C@@H]1O | bacterial hybrid ribosome, human cytoplasmic A site | cell-free translation |  |  | reference: cytoplasmic hybrid over wild-type bacterial | selectivity ratio | 1150

Some of these lines once more:
Structure (SMILES) | target | test | test system | setting | scale | quantity | value
CC(C)S[C@H]1[C@H](O)[C@@H](N)[C@@H](O[C@H]2[C@H](O[C@@H]3O[C@H](CO)[C@@H](O[C@H]4O[C@@H](CN)[C@@H](O)[C@H](O)[C@H]4N)[C@H]3O)[C@@H](O)[C@H](N)C[C@@H]2N)O[C@@H]1CO | bacterial hybrid ribosome, human mitochondrial A site | cell-free translation |  |  | reference: mitochondrial hybrid over wild-type bacterial | selectivity ratio | 1210
CCS(=O)(=O)[C@H]1[C@H](O)[C@@H](N)[C@@H](O[C@H]2[C@H](O[C@@H]3O[C@H](CO)[C@@H](O[C@H]4O[C@@H](CN)[C@@H](O)[C@H](O)[C@H]4N)[C@H]3O)[C@@H](O)[C@H](N)C[C@@H]2N)O[C@@H]1CO | bacterial hybrid ribosome, human mitochondrial A site | cell-free translation |  |  | reference: mitochondrial hybrid over wild-type bacterial | selectivity ratio | 24
